Published values of several laboratories.
Numbered parts are unrelated; each lists some results of a single study.
Sequence of UniProt P10721 (whole entry, unmodified, looked up): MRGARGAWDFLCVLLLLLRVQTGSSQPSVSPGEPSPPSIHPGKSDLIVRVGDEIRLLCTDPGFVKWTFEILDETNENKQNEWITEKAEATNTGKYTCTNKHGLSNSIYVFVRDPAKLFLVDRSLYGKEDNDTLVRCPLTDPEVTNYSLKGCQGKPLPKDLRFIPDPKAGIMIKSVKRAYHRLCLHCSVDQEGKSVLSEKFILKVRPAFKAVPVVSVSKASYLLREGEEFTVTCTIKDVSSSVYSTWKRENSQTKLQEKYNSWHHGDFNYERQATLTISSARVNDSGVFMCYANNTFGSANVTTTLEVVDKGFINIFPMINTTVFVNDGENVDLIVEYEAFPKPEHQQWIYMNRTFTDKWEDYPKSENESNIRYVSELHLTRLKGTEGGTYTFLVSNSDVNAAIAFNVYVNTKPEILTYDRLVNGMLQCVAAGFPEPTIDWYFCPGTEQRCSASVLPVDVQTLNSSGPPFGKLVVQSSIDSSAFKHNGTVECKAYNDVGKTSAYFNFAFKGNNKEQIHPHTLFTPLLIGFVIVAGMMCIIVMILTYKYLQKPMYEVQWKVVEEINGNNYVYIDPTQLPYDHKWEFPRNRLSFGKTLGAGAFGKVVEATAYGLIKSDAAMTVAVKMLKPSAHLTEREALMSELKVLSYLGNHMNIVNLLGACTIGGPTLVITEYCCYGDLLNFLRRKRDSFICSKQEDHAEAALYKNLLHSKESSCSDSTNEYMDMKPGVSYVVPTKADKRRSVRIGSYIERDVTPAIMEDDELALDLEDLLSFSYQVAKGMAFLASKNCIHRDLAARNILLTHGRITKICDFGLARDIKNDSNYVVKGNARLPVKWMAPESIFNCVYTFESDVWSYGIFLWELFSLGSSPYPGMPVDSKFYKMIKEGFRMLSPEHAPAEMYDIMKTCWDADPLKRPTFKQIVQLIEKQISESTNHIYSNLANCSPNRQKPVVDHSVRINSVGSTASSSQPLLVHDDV
Sequence of UniProt P08913 (whole entry, looked up): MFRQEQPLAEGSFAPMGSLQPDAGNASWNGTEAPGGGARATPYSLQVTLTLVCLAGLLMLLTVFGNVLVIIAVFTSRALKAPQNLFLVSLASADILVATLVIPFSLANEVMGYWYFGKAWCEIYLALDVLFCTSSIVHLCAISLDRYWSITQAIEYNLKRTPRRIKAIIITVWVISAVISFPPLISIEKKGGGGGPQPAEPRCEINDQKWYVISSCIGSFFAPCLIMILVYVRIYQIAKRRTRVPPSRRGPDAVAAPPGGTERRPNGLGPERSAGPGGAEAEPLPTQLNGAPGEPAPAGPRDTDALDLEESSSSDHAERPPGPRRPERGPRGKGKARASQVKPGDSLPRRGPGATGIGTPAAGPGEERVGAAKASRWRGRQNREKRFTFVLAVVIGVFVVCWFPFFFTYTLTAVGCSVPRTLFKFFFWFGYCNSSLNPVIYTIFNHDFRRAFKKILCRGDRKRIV
Sequence of UniProt Q5BJF2 (whole entry, looked up): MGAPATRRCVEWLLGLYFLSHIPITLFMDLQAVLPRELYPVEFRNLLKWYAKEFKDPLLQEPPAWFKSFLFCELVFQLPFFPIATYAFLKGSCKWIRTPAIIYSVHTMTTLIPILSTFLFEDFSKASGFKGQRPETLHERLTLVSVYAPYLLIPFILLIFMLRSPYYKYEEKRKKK
Sequence of UniProt P48730 (whole entry, looked up): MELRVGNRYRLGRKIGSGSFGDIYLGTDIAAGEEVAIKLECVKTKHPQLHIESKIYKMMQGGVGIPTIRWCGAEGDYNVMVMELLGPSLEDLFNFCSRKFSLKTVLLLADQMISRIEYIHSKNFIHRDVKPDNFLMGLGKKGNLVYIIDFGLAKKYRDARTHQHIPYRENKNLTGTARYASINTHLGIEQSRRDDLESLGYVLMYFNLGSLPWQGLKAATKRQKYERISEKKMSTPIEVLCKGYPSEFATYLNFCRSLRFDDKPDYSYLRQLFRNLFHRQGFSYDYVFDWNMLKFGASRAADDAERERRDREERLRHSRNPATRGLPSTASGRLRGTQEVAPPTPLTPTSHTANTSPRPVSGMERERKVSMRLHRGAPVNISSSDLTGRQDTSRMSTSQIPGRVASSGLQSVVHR
Sequence of UniProt P07949 (whole entry, looked up): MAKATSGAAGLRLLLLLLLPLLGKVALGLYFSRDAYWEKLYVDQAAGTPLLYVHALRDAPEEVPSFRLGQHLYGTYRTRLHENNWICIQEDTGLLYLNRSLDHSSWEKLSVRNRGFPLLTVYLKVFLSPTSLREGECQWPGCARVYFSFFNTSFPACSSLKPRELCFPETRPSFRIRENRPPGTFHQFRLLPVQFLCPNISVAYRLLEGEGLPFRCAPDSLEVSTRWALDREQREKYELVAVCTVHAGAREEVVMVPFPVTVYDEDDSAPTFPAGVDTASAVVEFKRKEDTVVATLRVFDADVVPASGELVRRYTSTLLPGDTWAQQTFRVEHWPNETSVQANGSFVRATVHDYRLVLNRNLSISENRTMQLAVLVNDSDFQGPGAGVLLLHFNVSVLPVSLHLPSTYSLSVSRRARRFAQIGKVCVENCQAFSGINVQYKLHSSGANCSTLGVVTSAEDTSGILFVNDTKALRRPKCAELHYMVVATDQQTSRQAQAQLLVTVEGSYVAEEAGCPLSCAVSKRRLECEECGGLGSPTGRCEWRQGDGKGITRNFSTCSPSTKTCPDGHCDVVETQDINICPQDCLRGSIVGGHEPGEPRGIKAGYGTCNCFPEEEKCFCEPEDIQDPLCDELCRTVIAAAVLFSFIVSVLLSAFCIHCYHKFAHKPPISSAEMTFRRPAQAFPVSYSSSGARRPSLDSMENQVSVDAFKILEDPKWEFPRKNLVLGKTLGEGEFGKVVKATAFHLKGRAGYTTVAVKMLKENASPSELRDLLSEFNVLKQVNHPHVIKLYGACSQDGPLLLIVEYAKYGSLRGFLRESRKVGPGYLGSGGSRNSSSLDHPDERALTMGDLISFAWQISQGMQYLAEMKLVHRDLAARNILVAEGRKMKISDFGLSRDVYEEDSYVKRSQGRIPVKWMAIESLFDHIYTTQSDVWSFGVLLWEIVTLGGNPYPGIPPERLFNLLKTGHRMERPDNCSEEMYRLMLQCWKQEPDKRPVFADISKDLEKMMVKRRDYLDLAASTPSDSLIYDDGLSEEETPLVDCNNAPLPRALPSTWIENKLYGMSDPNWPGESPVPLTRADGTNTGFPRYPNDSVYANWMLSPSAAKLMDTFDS
Sequence of UniProt Q99720 (whole entry, looked up): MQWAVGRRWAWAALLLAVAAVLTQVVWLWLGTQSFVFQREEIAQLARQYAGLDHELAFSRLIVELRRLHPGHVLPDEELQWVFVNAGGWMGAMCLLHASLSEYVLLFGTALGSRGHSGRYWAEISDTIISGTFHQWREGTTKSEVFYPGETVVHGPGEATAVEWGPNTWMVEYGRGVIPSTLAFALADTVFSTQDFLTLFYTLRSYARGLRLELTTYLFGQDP

Study 1 — read-out: ligand displacement; concentration: 10 µM; measurement: inhibition
Compound: O=C(NCc1ncc(C(F)(F)F)cc1Cl)c1ccc2c(c1)C1(CCS(=O)(=O)CC1)[C@H](C1CC1)N2S(=O)(=O)c1ccc(F)cc1
target = TMEM97 (Homo sapiens, UniProt Q5BJF2); result = 74.9%
target = HRH1 (Homo sapiens, UniProt P35367); result = 24.6%
target = HTR6 (Homo sapiens, UniProt P50406); result = -13.8%
target = ADRA2A (Homo sapiens, UniProt P08913); result = -5.62%
target = CHRM5 (Homo sapiens, UniProt P08912); result = -6.43%
target = ADRA1B (Homo sapiens, UniProt P35368); result = -4.46%
target = SIGMAR1 (Homo sapiens, UniProt Q99720); result = 17.8%

Study 2 — read-out: enzyme activity; mode: inhibitor; concentration: 0.5 µM; baseline: control; measurement: remaining activity
Target: Cyclin-dependent kinase 7 (CDK7, Homo sapiens, UniProt P50613)
Sequence of UniProt P50613 (whole entry, looked up): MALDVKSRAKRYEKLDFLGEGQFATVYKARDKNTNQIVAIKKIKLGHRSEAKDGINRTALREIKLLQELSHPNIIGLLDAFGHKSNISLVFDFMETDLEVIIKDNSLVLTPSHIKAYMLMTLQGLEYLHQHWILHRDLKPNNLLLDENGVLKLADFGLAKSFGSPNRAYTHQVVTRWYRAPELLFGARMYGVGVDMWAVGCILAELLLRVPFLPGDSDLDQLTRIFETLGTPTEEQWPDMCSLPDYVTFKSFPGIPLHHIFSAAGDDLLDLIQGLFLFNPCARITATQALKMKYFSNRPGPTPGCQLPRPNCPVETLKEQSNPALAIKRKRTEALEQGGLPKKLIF
SMILES = O=c1c2ccccc2[nH]c(=S)n1CCN1CCC(=C(c2ccc(F)cc2)c2ccc(F)cc2)CC1; result = 99.6%
SMILES = O=C1NC(=O)C(c2cn(CCCO)c3ncccc23)=C1c1cnccn1; result = 96.9%
SMILES = COc1ccc(CNC(=O)Nc2ncc([N+](=O)[O-])s2)cc1; result = 94.8%
SMILES = CNC(=O)c1cc(Oc2ccc(NC(=O)Nc3ccc(Cl)c(C(F)(F)F)c3)cc2)ccn1; result = 102%
SMILES = O=S(=O)(c1cccc2cnccc12)N1CCCNCC1; result = 95.5%
SMILES = C#Cc1cccc(Nc2ncnc3cc(OCCOC)c(OCCOC)cc23)c1; result = 107%
SMILES = O=C(CCCc1ccc(-c2ccccc2F)cc1)Nc1ccc(O)cc1; result = 101%
SMILES = O=C(O)c1ccc2c3c1cccc3c(=O)n1c3ccccc3nc21; result = 92.1%
SMILES = CO[C@H]1C[C@@H]2CC[C@@H](C)[C@@](O)(O2)C(=O)C(=O)N2CCCC[C@H]2C(=O)O[C@H]([C@H](C)C[C@@H]2CC[C@@H](O)[C@H](OC)C2)CC(=O)[C@H](C)/C=C(\C)[C@@H](O)[C@@H](OC)C(=O)[C@H](C)C[C@H](C)/C=C/C=C/C=C/1C; result = 98.2%
SMILES = Cc1nc(-c2ccccc2)c(-c2ccncc2)o1; result = 109%
SMILES = Nc1[nH]nc2nc3ccccc3nc12; result = 98%
SMILES = NCCNc1ncc(C(N)=O)c(Nc2cccc(C(F)(F)F)c2)n1; result = 98.5%
SMILES = Cc1ccc(Nc2nccc(N(C)c3ccc4c(C)n(C)nc4c3)n2)cc1S(N)(=O)=O; result = 103%
SMILES = COc1ccc(OC)c2c(=S)c3ccccc3[nH]c12; result = 91.7%

Study 3 — method: competitive binding panel; concentration: 1 µM; baseline: vehicle; measurement: remaining binding
SMILES: CN1CCN(C(=O)c2ccc(NC(=O)Nc3ccc(N(C)c4ccnc(Nc5ccc(CS(C)(=O)=O)cc5)n4)cc3)cc2)CC1
target = EGFR (Homo sapiens, UniProt P00533, del752-759); result = 100%
target = IRAK3 (Homo sapiens, UniProt Q9Y616); result = 0.1%
target = CSNK1D (Homo sapiens, UniProt P48730); result = 99%
target = STK17B (Homo sapiens, UniProt O94768); assay = item: DRAK2; result = 100%
target = RET (Homo sapiens, UniProt P07949); result = 0%
target = KIT (Homo sapiens, UniProt P10721, V559D/V654A); result = 9.1%
target = AKT3 (Homo sapiens, UniProt Q9Y243); result = 100%

Study 4 — cell line: A-375; concentration: 100 µM; time: 36 h; measurement: viability
Compound = CCN1CC(CCN2CCOCC2)C(c2ccccc2)(c2ccccc2)C1=O (stereo not shown); result = 114%
Compound = CCc1oc2ccccc2c1C(=O)c1cc(Br)c(O)c(Br)c1; result = 30.1%
Compound = NS(=O)(=O)c1cc2c(cc1Cl)NCNS2(=O)=O; result = 107%
Compound = C[C@H]1CN(C[C@H](Cc2ccccc2)C(=O)NCC(=O)O)CC[C@@]1(C)c1cccc(O)c1; result = 113%
Compound = CCCCC(CC)CN1CN(CC(CC)CCCC)CC(C)(N)C1 (stereo not shown); result = -2.86%
Compound = CN1C(C(=O)Nc2ccccn2)=C(O)c2sc(Cl)cc2S1(=O)=O; result = 78%

For quick reference, copied from above (study 1):
target = ADRA1B (Homo sapiens, UniProt P35368); result = -4.46%
target = SIGMAR1 (Homo sapiens, UniProt Q99720); result = 17.8%
target = ADRA2A (Homo sapiens, UniProt P08913); result = -5.62%
target = CHRM5 (Homo sapiens, UniProt P08912); result = -6.43%
target = HTR6 (Homo sapiens, UniProt P50406); result = -13.8%
